# Measured values pooled from the literature.
# Compare with care: the assays were run in different laboratories. Numbers after ± are the reported error.
# PTH1R: Parathyroid hormone/parathyroid hormone-related peptide receptor (PTH1R, Homo sapiens, UniProt Q03431)
# Sequence of UniProt Q03431 (whole entry, looked up): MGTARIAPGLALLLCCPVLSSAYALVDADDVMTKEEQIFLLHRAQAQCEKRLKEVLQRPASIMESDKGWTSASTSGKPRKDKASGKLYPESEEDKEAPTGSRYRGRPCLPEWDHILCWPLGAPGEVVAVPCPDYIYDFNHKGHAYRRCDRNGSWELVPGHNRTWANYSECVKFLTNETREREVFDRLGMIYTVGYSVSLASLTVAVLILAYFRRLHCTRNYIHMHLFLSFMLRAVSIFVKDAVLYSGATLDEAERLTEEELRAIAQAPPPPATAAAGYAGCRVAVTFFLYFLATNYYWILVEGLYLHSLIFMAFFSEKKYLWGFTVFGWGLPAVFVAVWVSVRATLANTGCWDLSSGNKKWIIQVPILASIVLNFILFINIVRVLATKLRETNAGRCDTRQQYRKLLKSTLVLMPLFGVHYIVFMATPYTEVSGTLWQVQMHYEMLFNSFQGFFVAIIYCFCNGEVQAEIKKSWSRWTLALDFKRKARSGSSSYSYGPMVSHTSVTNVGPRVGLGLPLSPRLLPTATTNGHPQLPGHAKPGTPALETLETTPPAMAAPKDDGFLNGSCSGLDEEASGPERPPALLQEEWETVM
# MAPK14: Mitogen-activated protein kinase 14 (MAPK14, Homo sapiens, UniProt Q16539)
# Sequence of UniProt Q16539 (whole entry, looked up): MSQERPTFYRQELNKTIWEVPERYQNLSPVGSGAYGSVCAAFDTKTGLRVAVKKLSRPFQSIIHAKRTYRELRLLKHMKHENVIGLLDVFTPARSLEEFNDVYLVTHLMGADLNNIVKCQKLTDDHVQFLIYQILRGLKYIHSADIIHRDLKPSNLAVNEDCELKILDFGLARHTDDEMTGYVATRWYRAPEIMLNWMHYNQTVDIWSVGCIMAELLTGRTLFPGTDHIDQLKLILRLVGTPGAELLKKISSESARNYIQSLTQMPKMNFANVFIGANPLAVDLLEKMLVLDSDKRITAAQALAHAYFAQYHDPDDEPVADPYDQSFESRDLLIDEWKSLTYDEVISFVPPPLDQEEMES
# Sequence of UniProt O35659 (whole entry, looked up): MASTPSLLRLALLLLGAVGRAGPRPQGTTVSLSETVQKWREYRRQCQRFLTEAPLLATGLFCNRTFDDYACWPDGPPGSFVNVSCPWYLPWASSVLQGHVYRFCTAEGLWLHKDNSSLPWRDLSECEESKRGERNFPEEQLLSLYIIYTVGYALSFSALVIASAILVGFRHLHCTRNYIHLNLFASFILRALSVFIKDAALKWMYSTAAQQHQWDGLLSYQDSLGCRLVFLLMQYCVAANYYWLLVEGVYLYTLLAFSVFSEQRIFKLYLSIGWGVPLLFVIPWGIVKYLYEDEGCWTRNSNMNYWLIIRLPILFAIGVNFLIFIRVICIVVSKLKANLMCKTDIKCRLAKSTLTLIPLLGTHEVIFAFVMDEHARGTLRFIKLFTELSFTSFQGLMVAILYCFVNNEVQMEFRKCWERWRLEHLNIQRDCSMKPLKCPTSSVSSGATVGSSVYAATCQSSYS
# Sequence of UniProt P08686 (whole entry, looked up): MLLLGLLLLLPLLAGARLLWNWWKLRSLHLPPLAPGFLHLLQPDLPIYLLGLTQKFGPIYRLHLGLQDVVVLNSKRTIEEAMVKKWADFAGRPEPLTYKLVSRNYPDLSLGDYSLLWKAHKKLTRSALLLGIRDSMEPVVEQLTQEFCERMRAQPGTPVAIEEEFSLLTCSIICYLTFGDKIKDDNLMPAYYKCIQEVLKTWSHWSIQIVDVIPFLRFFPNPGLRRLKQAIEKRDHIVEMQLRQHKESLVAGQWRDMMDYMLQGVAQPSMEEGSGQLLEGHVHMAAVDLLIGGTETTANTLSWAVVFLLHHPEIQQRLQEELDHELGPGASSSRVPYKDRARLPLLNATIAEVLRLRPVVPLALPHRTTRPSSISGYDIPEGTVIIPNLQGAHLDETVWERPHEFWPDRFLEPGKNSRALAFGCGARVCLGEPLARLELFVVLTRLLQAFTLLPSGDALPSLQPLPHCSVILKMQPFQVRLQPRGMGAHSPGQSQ
# Sequence of UniProt O77404 (whole entry, looked up): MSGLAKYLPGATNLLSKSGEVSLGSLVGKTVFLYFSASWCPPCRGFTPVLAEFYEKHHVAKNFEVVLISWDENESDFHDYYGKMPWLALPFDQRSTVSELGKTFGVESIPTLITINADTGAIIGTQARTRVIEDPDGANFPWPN
# Sequence of UniProt P23919 (whole entry, looked up): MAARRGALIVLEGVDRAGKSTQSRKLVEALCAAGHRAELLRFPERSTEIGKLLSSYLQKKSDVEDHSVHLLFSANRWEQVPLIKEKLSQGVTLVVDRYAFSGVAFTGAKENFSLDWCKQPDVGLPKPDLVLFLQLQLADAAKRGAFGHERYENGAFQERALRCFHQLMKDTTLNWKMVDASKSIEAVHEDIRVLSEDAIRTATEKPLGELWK
# Sequence of UniProt C0HJB3 (whole entry, looked up): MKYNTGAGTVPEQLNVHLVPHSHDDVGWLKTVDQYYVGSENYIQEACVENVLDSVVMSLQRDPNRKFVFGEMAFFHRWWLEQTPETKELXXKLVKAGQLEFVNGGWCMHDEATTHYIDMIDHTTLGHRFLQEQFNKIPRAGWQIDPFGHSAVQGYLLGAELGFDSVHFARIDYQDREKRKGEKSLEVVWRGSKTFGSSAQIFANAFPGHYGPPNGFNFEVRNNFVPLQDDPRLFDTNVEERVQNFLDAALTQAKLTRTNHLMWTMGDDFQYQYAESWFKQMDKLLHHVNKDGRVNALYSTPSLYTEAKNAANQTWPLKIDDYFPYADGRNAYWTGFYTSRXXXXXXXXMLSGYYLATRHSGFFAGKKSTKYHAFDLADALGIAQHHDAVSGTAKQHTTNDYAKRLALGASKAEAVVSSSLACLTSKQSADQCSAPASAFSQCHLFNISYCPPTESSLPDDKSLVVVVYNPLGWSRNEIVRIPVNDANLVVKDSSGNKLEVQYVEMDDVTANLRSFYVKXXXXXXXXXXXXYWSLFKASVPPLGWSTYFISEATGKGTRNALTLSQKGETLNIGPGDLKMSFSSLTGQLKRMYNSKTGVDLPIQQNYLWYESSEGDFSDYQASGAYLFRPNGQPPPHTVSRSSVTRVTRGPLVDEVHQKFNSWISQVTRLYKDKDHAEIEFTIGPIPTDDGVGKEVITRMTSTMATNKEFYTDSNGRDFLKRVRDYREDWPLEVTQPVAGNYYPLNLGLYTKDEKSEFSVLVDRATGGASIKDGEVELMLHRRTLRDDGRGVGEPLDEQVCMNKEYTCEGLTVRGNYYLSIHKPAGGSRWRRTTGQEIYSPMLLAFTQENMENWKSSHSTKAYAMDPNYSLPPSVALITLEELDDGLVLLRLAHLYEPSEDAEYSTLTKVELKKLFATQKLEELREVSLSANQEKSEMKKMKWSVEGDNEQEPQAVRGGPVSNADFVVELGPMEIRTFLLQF
# Sequence of UniProt P09429 (whole entry, looked up): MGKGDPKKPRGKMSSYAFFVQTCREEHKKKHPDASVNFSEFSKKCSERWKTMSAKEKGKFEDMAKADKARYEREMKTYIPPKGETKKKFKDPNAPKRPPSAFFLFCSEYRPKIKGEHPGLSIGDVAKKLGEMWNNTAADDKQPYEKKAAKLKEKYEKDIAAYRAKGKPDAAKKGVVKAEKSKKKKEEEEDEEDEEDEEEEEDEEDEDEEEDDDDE
# Sequence of UniProt Q16236 (whole entry, unmodified, looked up): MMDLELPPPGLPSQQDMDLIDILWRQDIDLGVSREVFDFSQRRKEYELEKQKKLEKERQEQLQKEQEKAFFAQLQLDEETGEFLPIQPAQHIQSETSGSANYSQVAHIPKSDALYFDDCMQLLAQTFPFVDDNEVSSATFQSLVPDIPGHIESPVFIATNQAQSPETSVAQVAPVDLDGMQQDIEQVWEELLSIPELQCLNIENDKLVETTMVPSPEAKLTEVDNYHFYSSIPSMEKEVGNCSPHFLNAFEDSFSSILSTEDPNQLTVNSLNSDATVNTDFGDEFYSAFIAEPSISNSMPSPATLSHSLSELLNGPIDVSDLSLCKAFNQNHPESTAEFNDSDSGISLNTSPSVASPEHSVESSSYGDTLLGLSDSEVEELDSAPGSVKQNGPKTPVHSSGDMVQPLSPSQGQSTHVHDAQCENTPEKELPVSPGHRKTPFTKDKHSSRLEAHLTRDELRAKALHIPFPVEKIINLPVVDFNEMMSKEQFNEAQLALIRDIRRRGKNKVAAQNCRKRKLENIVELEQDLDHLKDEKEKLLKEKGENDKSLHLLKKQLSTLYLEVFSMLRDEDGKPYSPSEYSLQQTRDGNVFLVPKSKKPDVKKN
# Sequence of UniProt Q9Y6Y9 (whole entry, looked up): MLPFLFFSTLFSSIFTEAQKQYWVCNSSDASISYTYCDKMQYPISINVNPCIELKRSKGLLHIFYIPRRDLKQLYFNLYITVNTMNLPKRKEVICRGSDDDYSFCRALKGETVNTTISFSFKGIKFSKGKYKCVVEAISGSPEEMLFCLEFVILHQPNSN
# Sequence of UniProt Q16881 (whole entry, looked up): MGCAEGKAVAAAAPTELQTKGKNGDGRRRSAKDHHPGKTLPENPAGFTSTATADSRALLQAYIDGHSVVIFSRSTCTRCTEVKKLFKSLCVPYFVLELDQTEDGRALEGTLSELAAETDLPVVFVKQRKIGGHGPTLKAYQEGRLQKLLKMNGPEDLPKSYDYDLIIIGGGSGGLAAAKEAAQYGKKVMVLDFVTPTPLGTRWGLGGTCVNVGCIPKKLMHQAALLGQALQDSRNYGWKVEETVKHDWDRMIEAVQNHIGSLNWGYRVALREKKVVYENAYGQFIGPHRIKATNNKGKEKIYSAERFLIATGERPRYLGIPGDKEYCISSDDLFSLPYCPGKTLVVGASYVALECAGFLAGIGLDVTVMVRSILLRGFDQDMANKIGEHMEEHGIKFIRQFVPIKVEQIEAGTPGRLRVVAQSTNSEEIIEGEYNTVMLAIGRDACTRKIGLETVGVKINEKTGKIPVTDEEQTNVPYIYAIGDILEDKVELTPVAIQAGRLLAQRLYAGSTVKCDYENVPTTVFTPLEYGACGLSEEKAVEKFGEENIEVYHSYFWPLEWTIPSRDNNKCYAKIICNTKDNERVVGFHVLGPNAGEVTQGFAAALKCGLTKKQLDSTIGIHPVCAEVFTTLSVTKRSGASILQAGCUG
Compound,target,test,system,setting,Kd
CN(C)CCNC(=O)c1cccc2c(NCCCCc3c(N)nc(N)nc3N)c3ccccc3nc12,RNA with U–U mismatch,"binding, ITC",,"25 °C, 1",25 ± 13 µM
CSCC[C@H](NC(=O)[C@H](CC(C)C)NC(=O)[C@H](CCC(N)=O)NC(=O)[C@H](Cc1c[nH]cn1)NC(=O)[C@H](CCC(=O)O)NC(=O)[C@H](CO)NC(=O)[C@@H](NC(=O)[C@@H](N)CO)C(C)C)C(=O)N[C@@H](Cc1c[nH]cn1)C(=O)N[C@@H](CC(N)=O)C(=O)N[C@@H](CC(C)C)C(=O)NCC(=O)N[C@@H](CCCCN)C(=O)N[C@@H](Cc1c[nH]cn1)C(=O)N[C@@H](CC(C)C)C(=O)N[C@@H](CC(N)=O)C(=O)N[C@@H](CO)C(=O)N[C@@H](CCSC)C(=O)N[C@@H](CCC(=O)O)C(=O)N[C@@H](CCCNC(=N)N)C(=O)N[C@H](C(=O)N[C@@H](CCC(=O)O)C(=O)N[C@@H](Cc1c[nH]c2ccccc12)C(=O)N[C@@H](CC(C)C)C(=O)N[C@@H](CCCNC(=N)N)C(=O)N[C@@H](CCCCN)C(=O)N[C@@H](CCCCN)C(=O)N[C@@H](CC(C)C)C(=O)N[C@@H](CCC(N)=O)C(=O)N[C@@H](CC(=O)O)C(=O)N[C@H](C(=O)N[C@@H](Cc1c[nH]cn1)C(=O)N[C@@H](CC(N)=O)C(=O)N[C@@H](Cc1ccccc1)C(=O)N[C@@H](CCCCNC(=O)c1ccc2c(c1)C1(OC2=O)c2ccc(N(C)C)cc2Oc2cc(N(C)C)ccc21)C(N)=O)C(C)C)C(C)C,PTH1R,"binding, NanoBRET kinetic binding",cells,"pH 7.5, together with: TMR-labelled peptide tracer",0.064 ± 0.01 µM
Cc1cn([C@H]2C[C@H](O)[C@@H](COP(=O)(O)O)O2)c(=O)[nH]c1=O,"Thymidylate kinase (DTYMK, Homo sapiens, UniProt P23919)",fluorescence competition,,together with: MABA-dTDP,2 µM
O=c1[nH]c(CCl)nc2scc(-c3ccc(C(F)(F)F)cc3)c12,"Tryparedoxin (Trypanosoma brucei brucei, UniProt O77404)","inhibitor-induced homodimer dissociation, dilution ITC",,,410 ± 56 µM
CC[C@H](C)[C@H](NC(=O)[C@H](CCC(=O)O)NC(=O)[C@H](CO)NC(=O)[C@@H](NC(=O)[C@@H](N)CO)C(C)C)C(=O)N[C@@H](CCC(N)=O)C(=O)N[C@@H](CC(C)C)C(=O)N[C@@H](CCSC)C(=O)N[C@@H](Cc1c[nH]cn1)C(=O)N[C@@H](CC(N)=O)C(=O)N[C@@H](CC(C)C)C(=O)NCC(=O)N[C@@H](CCCCN)C(=O)N[C@@H](Cc1c[nH]cn1)C(=O)N[C@@H](CC(C)C)C(=O)N[C@@H](CC(N)=O)C(=O)N[C@@H](CO)C(=O)N[C@@H](CCSC)C(=O)N[C@@H](CCC(=O)O)C(=O)N[C@@H](CCCNC(=N)N)C(=O)N[C@H](C(=O)N[C@@H](CCC(=O)O)C(=O)N[C@@H](Cc1c[nH]c2ccccc12)C(=O)N[C@@H](CC(C)C)C(=O)N[C@@H](CCCNC(=N)N)C(=O)N[C@@H](CCCCN)C(=O)N[C@@H](CCCCN)C(=O)N[C@@H](CC(C)C)C(=O)N[C@@H](CCC(N)=O)C(=O)N[C@@H](CC(=O)O)C(=O)N[C@H](C(=O)N[C@@H](Cc1c[nH]cn1)C(=O)N[C@@H](CC(N)=O)C(=O)N[C@@H](Cc1ccccc1)C(=O)N[C@@H](CCCCNC(=O)c1ccc2c(c1)C1(OC2=O)c2ccc(N(C)C)cc2Oc2cc(N(C)C)ccc21)C(N)=O)C(C)C)C(C)C,PTH1R,"binding, NanoBRET",,0.02% sodium azide,0.012 ± 0.002 µM
Oc1cc(-c2ccccc2Cl)[nH]n1,MAPK14,"binding, MST",,,1150 µM
N[C@@H](Cc1ccccc1)C(=O)N[C@@H](CCC(=O)O)C(=O)N[C@@H](CCC(=O)O)C(=O)N[C@@H](CCC(=O)O)C(=O)O,"LY96 (Homo sapiens, UniProt Q9Y6Y9)",binding,,,> 0.1 µM
CC[C@H](C)[C@H](NC(=O)[C@H](CC(=O)O)NC(=O)[C@H](Cc1ccccc1)NC(=O)[C@@H](NC(=O)[C@H](C)NC(=O)[C@H](CC(=O)O)NC(=O)[C@H](CC(=O)O)NC(=O)CCNC(=O)CCNC(=O)CCCC[C@@H]1SC[C@@H]2NC(=O)N[C@@H]21)C(C)C)C(=O)N[C@H](C(=O)N[C@H](C(=O)N[C@@H](CC(=O)O)C(=O)N[C@@H](CCC(=O)O)C(=O)N[C@@H](CCC(=O)O)C(=O)N[C@@H](CC(C)C)C(=O)N[C@@H](Cc1c[nH]c2ccccc12)C(N)=O)[C@@H](C)O)[C@@H](C)CC,"Microtubule-associated protein 1 light chain 3 beta (Homo sapiens, UniProt Q9GZQ8)","binding, BLI",,pH 7.4,3.1 µM
COc1cc2c(cc1-c1c(C)noc1C)ncc1[nH]c(=O)n([C@H](C)c3ccccn3)c12,"Bromodomain factor 3 (Trypanosoma brucei brucei, UniProt Q383S2)",SPR,Trypanosoma brucei,,37 ± 22 µM
C[n+]1ccc(/C=N/NC(=O)c2cncc(C(=O)N/N=C/c3cc[n+](C)c4ccccc34)n2)c2ccccc21,telomeric G4 DNA hybrid-1,"binding, native ESI-MS",100 mM trimethylammonium acetate,1 mM KCl,0.016 µM
CCc1nc2cc3ccccc3cc2cc1C(=O)N1CCC[C@H]1C(=O)N[C@@H](C/C=C\C[C@H](NC(=O)[C@@H]1CCCN1C(=O)c1cc2cc3ccccc3cc2nc1CC)C(=O)N[C@@H](CCCCN)C(=O)NCCCN)C(=O)N[C@@H](CCCCN)C(=O)NCCCN,HIV-1 frameshift site RNA,"binding, surface plasmon resonance",,pH 7.4,1.24 µM
O=C(O)C(CO)NCc1cc(Cl)c(OCc2cccc(-c3ccccc3)c2Br)cc1OCc1cccnc1 (stereo not drawn),"Programmed cell death 1 ligand 1 (Macaca fascicularis, UniProt G7PSE7)","binding, surface plasmon resonance",,,8.64e-05 µM
CC[C@H](C)[C@H](NC(=O)[C@H](CCC(=O)O)NC(=O)[C@H](CO)NC(=O)[C@@H](NC(=O)[C@@H](N)CO)C(C)C)C(=O)N[C@@H](CCC(N)=O)C(=O)N[C@@H](CC(C)C)C(=O)N[C@@H](CCSC)C(=O)N[C@@H](Cc1c[nH]cn1)C(=O)N[C@@H](CC(N)=O)C(=O)N[C@@H](CC(C)C)C(=O)NCC(=O)N[C@@H](CCCCN)C(=O)N[C@@H](Cc1c[nH]cn1)C(=O)N[C@@H](CC(C)C)C(=O)N[C@@H](CC(N)=O)C(=O)N[C@@H](CO)C(=O)N[C@@H](CCSC)C(=O)N[C@@H](CCC(=O)O)C(=O)N[C@@H](CCCNC(=N)N)C(=O)N[C@H](C(=O)N[C@@H](CCC(=O)O)C(=O)N[C@@H](Cc1c[nH]c2ccccc12)C(=O)N[C@@H](CC(C)C)C(=O)N[C@@H](CCCNC(=N)N)C(=O)N[C@@H](CCCCN)C(=O)N[C@@H](CCCCN)C(=O)N[C@@H](CC(C)C)C(=O)N[C@@H](CCC(N)=O)C(=O)N[C@@H](CC(=O)O)C(=O)N[C@H](C(=O)N[C@@H](Cc1c[nH]cn1)C(=O)N[C@@H](CCCCNC(=O)c1ccc2c(c1)C1(OC2=O)c2ccc(N(C)C)cc2Oc2cc(N(C)C)ccc21)C(=O)N[C@@H](Cc1ccccc1)C(N)=O)C(C)C)C(C)C,PTH1R,"binding, NanoBRET",,0.02% sodium azide,0.011 ± 0.004 µM
C=CCc1cc(CC2CN(Cc3ccccc3)CC(Cc3ccc(O)c(CC=C)c3)C2=O)ccc1O (stereo not drawn),"TXNRD1 (Homo sapiens, UniProt Q16881)","binding, SPR",,,12.2 µM
O=c1c2ccccc2ncn1-c1ccccc1F,MAPK14,"binding, SPR",,,780 µM
O=C(Cc1ccc(F)cc1)NCCOc1ccc(-c2ccc(F)cc2)nn1,"VSIR (Homo sapiens, UniProt Q9H7M9)","binding, MST",,,0.13 µM
C[C@]12CC/C(=N\OCCN3CCCCC3)C=C1CCC1C2CC[C@]2(C)/C(=C/c3ccccn3)CCC12 (stereo partly drawn),"CYP21A2 (Homo sapiens, UniProt P08686)","binding, absorbance",,,3.6 µM
CC[C@H](C)[C@H](NC(=O)[C@H](CC(C)C)NC(=O)[C@H](Cc1ccccc1)NC(=O)[C@@H](NC(=O)[C@H](C)NC(=O)c1ccc2c(c1)C(=O)OC21c2ccc(O)cc2Oc2cc(O)ccc21)[C@@H](C)O)C(=O)N[C@@H](CCC(N)=O)C(=O)N[C@@H](CCC(=O)O)C(=O)N[C@@H](Cc1ccc(O)cc1)C(=O)N[C@@H](Cc1ccccc1)C(=O)N[C@@H](CCCNC(=N)N)C(=O)N[C@@H](CCCCN)C(=O)N[C@@H](Cc1ccccc1)C(=O)N[C@@H](CCCCN)C(=O)N[C@@H](CCCCN)C(=O)N[C@@H](CCCNC(=N)N)C(=O)N[C@@H](CCCCN)C(=O)N[C@@H](CCC(=O)O)C(=O)N[C@@H](CCC(N)=O)C(=O)NCC(=O)N[C@@H](CC(C)C)C(=O)N[C@H](C(=O)NCC(=O)N[C@@H](CCCCN)C(=O)N1CCC[C@H]1C(=O)N[C@@H](CO)C(=O)N[C@@H](CCC(N)=O)C(=O)O)C(C)C,"Calmodulin-1, C-lobe (Calm1, Rattus norvegicus, UniProt P0DP29)","binding, fluorescence anisotropy",,"pH 7.4, 22 °C, together with: Ca2+ saturated",≤ 0.01 µM
COC(=O)c1c(O)cc(O)c(Cl)c1CCc1ccccc1Cc1ccccc1OC,"Endoplasmin (HSP90B1, Canis lupus familiaris, UniProt P41148)","ligand displacement, FP",,,7.8 µM
C[C@@]1(CO)CC[C@]2(CO)CC[C@]3(C)C(=CCC4[C@@](C)(CCC(=O)O)C([C@@](C)(O)CO)CC[C@]43C)[C@@H]2C1 (stereo partly drawn),"HMGB1 (Homo sapiens, UniProt P09429)","binding, BLI",,,> 1000 µM
CC[C@H](C)[C@H](NC(=O)[C@H](Cc1ccccc1)NC(=O)[C@@H]1CCn2cc(nn2)-c2cccc(c2)-c2cn(nn2)CC[C@H](NC(=O)[C@H](Cc2ccc(O)cc2)NC(=O)[C@H](CO)NC(=O)[C@H](CO)NC(=O)[C@@H](NC(=O)[C@H](CC(=O)O)NC(=O)[C@H](CO)NC(=O)[C@@H](NC(=O)[C@H](Cc2ccccc2)NC(=O)[C@@H](NC(=O)CNC(=O)[C@H](CCC(=O)O)NC(=O)[C@H](C)NC(=O)[C@@H](N)Cc2c[nH]cn2)[C@@H](C)O)[C@@H](C)O)C(C)C)C(=O)N[C@@H](CCC(=O)O)C(=O)NCC(=O)N[C@@H](CCC(N)=O)C(=O)N[C@@H](C)C(=O)N[C@@H](C)C(=O)N[C@@H](CCCCN)C(=O)N1)C(=O)N[C@@H](C)C(=O)N[C@@H](Cc1c[nH]c2ccccc12)C(=O)N[C@@H](CC(C)C)C(=O)N[C@H](C(=O)N[C@@H](CCCCN)C(=O)NCC(=O)N[C@@H](CCCNC(=N)N)C(N)=O)C(C)C,"Glucagon-like peptide 1 receptor (Mus musculus, UniProt O35659)",cell-free assay,,,0.0048 µM
COc1cc(C(O)C(CO)c2ccc(O)c(OC)c2)ccc1O (stereo not drawn),"Alpha-mannosidase (Canavalia ensiformis, UniProt C0HJB3)","binding, surface plasmon resonance",,25 °C,410 µM
CC(=O)N[C@H]1[C@@H](OC(=O)NCCCOCCOCCOCCCNC(=O)O[C@H]2O[C@H](CNC(=O)OCCOCCOCCOCCOCCOCCOCCOCCOCCOCCOCCOCCOC(=O)NC[C@H]3O[C@H](OC(=O)NCCCOCCOCCOCCCNC(=O)O[C@H]4O[C@H](CO)[C@@H](O)[C@H](O)[C@H]4NC(C)=O)[C@H](NC(C)=O)[C@@H](O)[C@@H]3O)[C@@H](O)[C@H](O)[C@H]2NC(C)=O)O[C@H](CO)[C@@H](O)[C@@H]1O,wheat germ agglutinin,competitive ITC,,together with: GlcNAc 10 mM competitor,0.013 µM
Nc1cccc(-c2ccc(OCC(=O)O)c(Cl)c2)c1,"Nuclear factor erythroid 2-related factor 2, Neh1 domain (NFE2L2, Homo sapiens, UniProt Q16236)","binding, NMR chemical shift perturbation",,,3200 ± 700 µM
